Experimental data collected from several papers.
Every numbered part comes from another study and shows a few of its results, in no order. Changes are numbered by the printed parent chain.

Set 1
Target: CREBZF, bZIP domain (human)
Method: DHFR protein complementation
Matrix: yeast
Setting: single substitutions, most at no-binding floor
Reference: wild-type JUN-FOS pair
Reading: higher = stronger binding
Endpoint: binding fitness
Starting sequence: JUN, bZIP domain (human); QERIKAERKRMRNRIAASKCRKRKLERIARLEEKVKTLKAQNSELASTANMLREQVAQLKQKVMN; partner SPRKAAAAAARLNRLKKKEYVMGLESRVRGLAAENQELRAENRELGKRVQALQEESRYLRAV
A46S: -1.53 natural log
E54P: -1.31 natural log
E44W: -1.53 natural log
I28L: -1.39 natural log
Q41P: -1.46 natural log
Q41V: -1.46 natural log
Q55H: -1.52 natural log
K36C: -1.37 natural log
L59R: -1.39 natural log
R53W: -1.49 natural log
K36G: -1.45 natural log
A40Q: -1.4 natural log
E32Q: -1.46 natural log
Q55F: -1.47 natural log

Set 2
Target: CCNA2, cyclin fold, Cln2 fusion (human)
Method: yeast growth competition, sequencing
Matrix: yeast
Setting: strong parent motif
Reference: not given
Reading: higher = stronger binding
Endpoint: normalised enrichment score
Starting sequence: RBL2 docking peptide (human); STTRRRLFVENDS
R5A: 0.103
T3F: 5.19
L7D: 1
R4A: 4.14
R5L: 0.242
R5W: 0.0859
R6V: 3.22
T2F: 4.74
E10T: 4.78
R5N: 0.218
R6N: 1.69
D12E: 4.69
R5P: 0.439
F8H: 0.017
S13H: 5.9

Set 3
Target: RNA binding protein fox-1 homolog 2, RRM domain, GST-SBP tag (RBFOX2, Homo sapiens, UniProt O43251-10, residues 100-194)
Method: RNA Bind-n-Seq
Form: RNA
Matrix: in vitro
Tested at: 365 nM
Setting: natural RNA segment, single round, ends assumed
Reference: no-protein control
Reading: higher = stronger binding
Endpoint: RBNS enrichment (R)
Constant ends, left off below: GGGAGUUCUACAGUCCGACGAUC … UGGAAUUCUCGGGUGCCAA
Construct (chain): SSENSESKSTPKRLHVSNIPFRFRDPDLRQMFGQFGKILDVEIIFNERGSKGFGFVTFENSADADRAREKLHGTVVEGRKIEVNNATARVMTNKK
GACUUUGCUCAGCCAUGUCCCCUGGGAUACAGGGGCACACCAGGACCAAGUGGCAGACCUGUGGGCUUCAGCCUCGGGGCCGGGGCAUGCCUGCCACCCCCUGACAAAAA: 0.377
UCUCGUGAAAUUCUCACUGAAAGCCACAUUCUUAGCCUAAGGCAUUUCAUCUUUUAUGAUAUAAAAUGAUGGCUAUCAAAUGAUUUUCCAUACAUUGUACUGAUCAAGUU: 0.331
AUCCAAGGACCGCCUGUUCAUAAGCUAUGCUCCAGAGGCUGCCGAUUCACUCGUGUGCACGGAGGGGGUGCUCCAGAUGGGAAUCACACAGGGCUUUCUUCACUCUUGGU: 1.14
UAUUCAGUGAUGUCAUCAACCUCACUGUCCCAGCCCAUGUGUGACUAAAGUGCCCGGUUUUAGCCACAGACAACUGCUUAGAUGUCACCUCUUGGCUGACCAAAGCUGGG: 0.259
CUCUCCCCCAGGAGCCCUGCUGCUUUGCUUGGUGGUAGGGCAGGAGAGCAAACAAACAGUCAUGGUCUAAAACCCACAUAGCACUUUGCUCUUAGUUACAUGUAAAAUUU: 0.745
GAGCCUGGCAUACACACUCUGCAUGUUACUUCUUGAGAACUAGACCUGUGUGCCUGUGUUUUCCUGAACAGCUGCUUUCUGUCAGGCAGACUCCUCUGACCUGGAUGCGG: 4.13
GCAGAAUGCUUUGAAAGAAACUAAUCAGAAUCUUGGAACAUCAUGAUCAUGCCAUUCUUAAGUAAAUCAACUAUUUUCAACACUGAAGAAAAAUGAAACAUUAUUUAGAA: 0.294
CCUAGUGUGAUGAAGACCUUGCCCUCUUCAUUUCCCUCAACUCCCUACUCCUUUUAUGUAUGGAUGGGGUCUAACCAAGUGCACCCACUCCCCAAUAAAUCGACUCUUCC: 0.41
AAACCAAGCUCAGGGCCCCAACCCUAGAAGGGCCCAAAUGAGAGAAUGGUACUUAGGGAUGGAAAACGGGCCUGGCUAGAGCUUCGGGUGUGUGUGUCUGUCUGUGUGUA: 1.49
UCUAAGAAGCUCAGUUUUGCGGUUUUGAUUUCAGGUUGCAAACAUUUAAAUUGUGCACAGCAACAGGUUCUCAGUUCUGCCAGUUCCUUUAUGCUCCUGUAAUCGGCUAA: 0.346
CAUAGCAAAAAGAAAGUGGCUACAGGAUUGUGGCUAACAAGAAUAAAUACAUGGGAAAAGUGCUCCCCCUGGAAGAGUCACUGUCUGAAUGAAGCAAAGUUCCCUCUCAG: 0.474

Other studies, line by line
PhoQ, residues 284 288 289 292 302 303 TTSMTC  fold induction (PhoP, residues 12 14 15 18 19 NHFIF (Escherichia coli, UniProt P23836); Sort-seq, item: YFP reporter; E. coli; PhoQ-PhoP variant library, with: 10 µM Mg2+; reference: high Mg2+ state, higher = stronger signaling): 16.2

For quick reference, copied from above (set 1):
Q41P: -1.46 natural log
E32Q: -1.46 natural log
R53W: -1.49 natural log
Q55H: -1.52 natural log
